{"data": "Assay results pooled from the literature", "note": "A part holds a random share of what one study measured. Substitutions count along the parent as printed."}
{"data": "Study 1", "target": "CCND2, cyclin fold, Cln2 fusion (human)", "method": "yeast growth competition, sequencing", "medium": "yeast", "notes": "weak parent motif", "baseline": "not given", "direction": "higher = stronger binding", "parent": "RB1 docking peptide (human); PKPLKKLRFDIEG; partner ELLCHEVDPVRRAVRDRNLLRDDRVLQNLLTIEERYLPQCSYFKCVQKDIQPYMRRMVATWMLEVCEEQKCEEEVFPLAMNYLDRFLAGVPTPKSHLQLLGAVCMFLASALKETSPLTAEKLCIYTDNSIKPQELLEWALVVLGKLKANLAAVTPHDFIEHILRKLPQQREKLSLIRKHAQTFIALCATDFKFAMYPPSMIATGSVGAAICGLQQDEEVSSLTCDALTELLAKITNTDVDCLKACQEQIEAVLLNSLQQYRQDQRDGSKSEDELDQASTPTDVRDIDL"}
{"Substitution": "PKILKKLRFDIEG [P3I]", "normalised enrichment score": 0.141}
{"Substitution": "PKPLKKLRFDIEM [G13M]", "normalised enrichment score": 0.282}
{"Substitution": "PFPLKKLRFDIEG [K2F]", "normalised enrichment score": -0.18}
{"Substitution": "PKPLKKLRKDIEG [F9K]", "normalised enrichment score": 0.326}
{"Substitution": "PKPLKILRFDIEG [K6I]", "normalised enrichment score": 0.216}
{"data": "Study 2", "target": "CREBL2, bZIP domain (human)", "method": "DHFR protein complementation", "medium": "yeast", "notes": "single substitutions, most at no-binding floor", "baseline": "wild-type JUN-FOS pair", "direction": "higher = stronger binding", "parent": "JUN, bZIP domain (human); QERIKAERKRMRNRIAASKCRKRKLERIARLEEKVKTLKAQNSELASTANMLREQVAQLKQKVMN; partner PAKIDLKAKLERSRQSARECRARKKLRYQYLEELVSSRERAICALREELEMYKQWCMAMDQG"}
{"Substitution": "I28G", "binding fitness [natural log]": -1.46}
{"Substitution": "A49N", "binding fitness [natural log]": -1.49}
{"Substitution": "M51Q", "binding fitness [natural log]": -1.54}
{"Substitution": "A46T", "binding fitness [natural log]": -1.31}
{"Substitution": "A49W", "binding fitness [natural log]": -1.51}
{"Substitution": "A29N", "binding fitness [natural log]": -1.21}
{"Substitution": "A40I", "binding fitness [natural log]": -1.62}
{"Substitution": "K36S", "binding fitness [natural log]": -1.43}
{"Substitution": "L31C", "binding fitness [natural log]": -1.56}
{"Substitution": "A57Q", "binding fitness [natural log]": -1.44}
{"Substitution": "S47C", "binding fitness [natural log]": -1.44}
{"data": "Study 3", "target": "Interferon regulatory factor 5, full length, phosphomimetic (IRF5, Homo sapiens, UniProt Q13568-2, residues 1-514, K96S/S451D/S453D/S456D/S462D)", "method": "protein-binding microarray", "molecule type": "double-stranded DNA, one strand shown", "medium": "in vitro", "concentration": "250 nM", "notes": "60-bp whole probe", "together with": "salmon DNA 0.4 mg/ml", "baseline": "random background probes", "direction": "higher = stronger binding", "constant ends, left off below": "GCCTAGCAC … GTCTTGATTCGCTTGACGCTGCTG"}
{"Strand": "GACGGTTCCCTTCTCCTGACGTGCTAG", "log fluorescence [z-score]": 0.0375}
{"Strand": "TGAGGTTTTCTAATGTTTTTGTGCTAG", "log fluorescence [z-score]": 0.66}
{"Strand": "CTCACTCTGTCCCTCTGTGAGTGCTAG", "log fluorescence [z-score]": -0.028}
{"Strand": "CTGCAGCCCACTCCTGAACAGTGCTAG", "log fluorescence [z-score]": -0.28}
{"Strand": "TTAGGACTGGCTATCGGTTAGTGCTAG", "log fluorescence [z-score]": 4.24}
{"Strand": "TTATGTCTCCTTTTCCTTTAGTGCTAG", "log fluorescence [z-score]": 0.983}
{"Strand": "AACGGTCTCGGACTGGGGACGTGCTAG", "log fluorescence [z-score]": -0.113}
{"Strand": "CATCATTGCCTATTTTTCACCGTGCTA", "log fluorescence [z-score]": 0.806}
{"Strand": "GACGATATGAGTCTCGAGACGTGCTAG", "log fluorescence [z-score]": 0.614}
{"data": "Further values, each from its own experiment"}
{"Molecule": "PhoQ, residues 284 288 289 292 302 303 GLASVI", "target": "PhoP, residues 12 14 15 18 19 TQAML (Escherichia coli, UniProt P23836)", "assay": "Sort-seq, refers to: YFP reporter", "test system": "E. coli", "setting": "PhoQ-PhoP variant library, together with: 10 µM Mg2+", "scale": "baseline: high Mg2+ state, higher = stronger signaling", "measurement": "fold induction", "value": 1.82}
{"note": "For quick reference, copied from above (study 2):"}
{"Substitution": "M51Q", "binding fitness [natural log]": -1.54}
{"Substitution": "A49W", "binding fitness [natural log]": -1.51}
